Results pooled from the literature.
Numbered parts are unrelated; each lists some results of a single study. Substitutions count along the parent as printed.

Series 1
Target: ABI1, truncated, D143A, DHFR fusion (Arabidopsis thaliana)
Technique: DHFR PCA, deep sequencing
Medium: yeast
Notes: methotrexate growth selection, single substitutions
Together with: (+)-ABA 0.0091 µM
Relative to: wild-type fitted maximum
Direction: higher = stronger binding
Starting sequence: PYL1, truncated, DHFR fusion (Arabidopsis thaliana); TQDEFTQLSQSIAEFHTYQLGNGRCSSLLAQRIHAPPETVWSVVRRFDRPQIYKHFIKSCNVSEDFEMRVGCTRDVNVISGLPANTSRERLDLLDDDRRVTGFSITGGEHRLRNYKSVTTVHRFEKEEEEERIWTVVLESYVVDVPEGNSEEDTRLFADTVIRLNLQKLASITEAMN; partner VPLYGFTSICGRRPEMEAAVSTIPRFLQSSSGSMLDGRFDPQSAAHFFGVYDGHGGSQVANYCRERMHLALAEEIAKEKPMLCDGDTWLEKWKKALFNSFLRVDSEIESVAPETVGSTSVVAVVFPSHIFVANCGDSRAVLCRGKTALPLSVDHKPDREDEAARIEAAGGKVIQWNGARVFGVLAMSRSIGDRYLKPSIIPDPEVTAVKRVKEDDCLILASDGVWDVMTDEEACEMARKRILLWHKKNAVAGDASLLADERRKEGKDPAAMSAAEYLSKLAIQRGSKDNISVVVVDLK
| Change | relative binding score [%] |
| --- | --- |
| D144S | -3.54 |
| E131Y | 14.3 |
| E151M | 35.4 |
| R155S | 0.93 |
| E109K | -3.87 |
| A158K | 1.14 |
| S104T | 39.9 |
| N114V | -0.0781 |
| T106F | 4.68 |
| R113L | 18.4 |
| I52P | -3.11 |
| Q51N | -11.5 |
| L29I | 34.7 |
| D3N | 23.6 |
| R24V | 4.56 |
| Y53H | 4.49 |
| T39M | 30.2 |
| T73G | -0.935 |
| R90Q | 4.55 |
| D3L | 22.2 |

Series 2
Target: RING finger protein unkempt homolog, zinc fingers 1-6, GST-SBP tag (UNK, Homo sapiens, UniProt Q9C0B0, residues 30-357)
Technique: RNA Bind-n-Seq
Molecule type: RNA
Medium: in vitro
Concentration: not given
Notes: RNA with constant flanks, human and mouse sites, ends assumed
Relative to: input RNA pool
Direction: higher = stronger binding
Shared flanks, not repeated: GGGAGUUCUACAGUCCGACGAUC … CAACAGAGGAUUGAGCAUCA
Residues (chain): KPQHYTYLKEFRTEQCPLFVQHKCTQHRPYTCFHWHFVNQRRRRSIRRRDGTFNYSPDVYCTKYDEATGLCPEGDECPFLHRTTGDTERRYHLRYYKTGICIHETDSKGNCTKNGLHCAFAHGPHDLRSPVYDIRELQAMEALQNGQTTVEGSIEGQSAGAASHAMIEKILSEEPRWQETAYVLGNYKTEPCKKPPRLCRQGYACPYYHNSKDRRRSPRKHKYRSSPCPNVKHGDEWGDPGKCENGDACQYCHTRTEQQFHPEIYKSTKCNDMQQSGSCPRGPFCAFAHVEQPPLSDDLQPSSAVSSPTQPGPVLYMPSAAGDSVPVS
| Oligonucleotide | bound/input enrichment |
| --- | --- |
| ACUACAGGAUGUGUAUUAAAUAAAUUGUUUCAGUUACCAACACCACCAUUGUCAAGACACCAACUAAAGCGGCUAGAAGAACACAGAUAUCAAAGUGCUGGACGGUCCCUGCUUGAGCCC | 0.783 ratio |
| GAACUUCAAGCUUUACAAAUAUUACAGAAGAAAAAACAUAAAAAUUCUCAGUUAGAUAAAAAUAGUGAAAUUUGCCAGGAAGUUCAAGCUGUAUGUGAUGCCCUCGGGGUCCCCAAGUCU | 3.12 ratio |
| CAAAGCAUUGAGCGUUCUCAUCGGAUUGCCACAGAAACUGAUCAAAUUGGUACAGAAAUCAUAGAAGAGUUGGGGGAGCAACGAGACCAGUUGGAACGUACUAAGAGCAGACUGGUAAAU | 0.437 ratio |
| AGCUGCCCCUGCCCACCUGCCCUGGUGUGGGGGUCCCUAGGCCACACCCUGCUCCCCACCCAGCUACCCUGUGCGCCUGUGCCCUGCUGGGGGCCUGGGCUCUCCGAGGGGCCUGAGGAU | 0.121 ratio |
| UGUUACCUCAUUUAUACAGAUGAAACCCAGCCUGAGAUGGAUCUUUUCCUUAAGGACUAUUCACCUAAACUUAAGAGAAUGUGCGAGACAAUGGGAUAUUUUUUCCAUGCUGUUUAUUUU | 0.206 ratio |
| CCAACGUUAGAAGCAGCCUGGCCUCAUCUGCAGCUUGUUUAUGAAUUUUUCUUAAGAUUUUUAGAGUCUCCAGAUUUCCAACCCAAUAUAGCAAAGAAAUAUAUUGAUCAGAAGUUUGUA | 3.07 ratio |
| CCUCCUGAGGCCCUGGAUGAUUCUAAUUGUUAGAAAUUCUAAUUGUUAGAAAUCCUUCCUUAUAAUGAAUGAAUUCUGCUUUCCUAUAAUUUCUACCUAUUGGGCCUUGUUCUGUUCUCU | 0.404 ratio |
| UGUGAAAAUAUAUAAAUAUCACCCAAAAGGCUUUCUGCCCUAUAUUUUUAAAAUACAGAAUAGUUAUAUUUGAAGUAGCCCUGGCCCUAGUUCUAUAGGGCUUGGCUAUUUAAUAUUUUU | 1.28 ratio |
| GACUUAGCAAAUAAAAGAGCUGUUGACUUCCAGGAAGCACAGUCCUAUGCAGAUGACAACAGCUUAUUAUUUAUGGAGACAUCAGCUAAGACAUCAAUGAAUGUAAAUGAAAUAUUUAUG | 0.211 ratio |
| UUUGCAGAAUGGAGGCAGCUCUGGUUGACCGGUUCCUUGGUUGAGCUCUGACUCAAGACCUAGGUCCCAAGAGCAGGCCUUCCUCACCUAAGAGAGCAACACCUAUGGGUGACCCAUUCU | 0.055 ratio |
| CCUGAGCUGAUGGUGGCUUCUUACAACAACAAUGAAGAUGCUCCCCAUGAACCAGAUGGAGUGGCCUUGGUUUGGAACAUGAAGUUUAAGAAAACCACACCAGAAUACGUCUUCCACUGU | 0.145 ratio |

Series 3
Target: Prothrombin, mature alpha-thrombin (F2, Homo sapiens, UniProt P00734)
Technique: aptamer microarray, sandwich
Molecule type: DNA with 2'F-ANA
Medium: in vitro
Concentration: 200 nM
Notes: whole 15-mer aptamer, many near background
Together with: Cy3 exosite-II aptamer, 400 nM
Direction: higher = stronger binding
Oligonucleotide: GGTTGGTGTGGTTGG
| Modification | mean fluorescence intensity [a.u.] |
| --- | --- |
| 2'F-ANA at 1 4 5 7 9 10 11 14 | 47.1 |
| 2'F-ANA at 1 2 3 4 9 10 11 13 15 | 57 |
| 2'F-ANA at 1 2 3 4 5 6 7 10 11 12 13 15 | 50.7 |
| 2'F-ANA at 2 3 4 7 10 11 12 13 14 | 173 |
| 2'F-ANA at 2 3 5 6 9 10 11 12 14 15 | 50.5 |
| 2'F-ANA at 1 2 3 5 6 8 9 10 11 12 13 | 51.9 |
| 2'F-ANA at 2 4 5 6 8 13 15 | 52.3 |
| 2'F-ANA at 1 3 9 12 13 | 435 |
| 2'F-ANA at 4 6 7 9 10 12 13 14 15 | 65.4 |
| 2'F-ANA at 2 3 6 7 9 10 12 13 | 332 |
| 2'F-ANA at 4 7 9 12 13 | 356 |
| 2'F-ANA at 2 3 6 9 10 11 12 | 369 |
| 2'F-ANA at 1 2 6 7 9 | 142 |
| 2'F-ANA at 3 4 7 10 12 13 15 | 298 |
| 2'F-ANA at 1 5 6 8 10 11 12 13 15 | 214 |
| 2'F-ANA at 1 4 5 6 10 13 15 | 72.5 |
| 2'F-ANA at 3 4 5 9 15 | 107 |
| 2'F-ANA at 2 4 6 7 8 10 14 | 58.9 |
| 2'F-ANA at 4 5 6 7 8 12 | 163 |
| 2'F-ANA at 1 2 4 5 6 8 9 10 12 13 14 | 48.8 |
| 2'F-ANA at 1 2 3 5 6 9 12 13 14 | 49.7 |
| 2'F-ANA at 5 7 9 11 15 | 66 |

Series 4
Target: RNA binding protein fox-1 homolog 2, RRM domain, GST-SBP tag (RBFOX2, Homo sapiens, UniProt O43251-10, residues 100-194)
Technique: RNA Bind-n-Seq
Molecule type: RNA
Medium: in vitro
Concentration: 365 nM
Notes: natural RNA segment, single round, ends assumed
Relative to: no-protein control
Direction: higher = stronger binding
Shared flanks, not repeated: GGGAGUUCUACAGUCCGACGAUC … UGGAAUUCUCGGGUGCCAA
Construct (chain): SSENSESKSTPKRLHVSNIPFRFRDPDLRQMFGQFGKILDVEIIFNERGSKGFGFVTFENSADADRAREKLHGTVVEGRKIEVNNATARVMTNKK
| Oligonucleotide | RBNS enrichment (R) |
| --- | --- |
| GAGCCACGCCCAAGGCGAGACUUCCAGCCCCAACACCCACUUUGGAAGCCCUGUGGCCACAUGUAUGUCAGUAAGGGUUGUACAAAAUAAAUUCUAUUUAUCGCUAUUGU | 0.344 |
| CUUCCCCUUCCAACUAUGUCCAGAUGUGCAGGCUCCUCCUCUCUGGACUUUCUCCAAAGGCACUGACCCUCGGCCUCUACUUUGUCCCCUCACCUCCACCCCCUCCUGUC | 0.89 |
| UUUUUUAAUUUAAAGUUUUUUUAUGUAAGUUUUCCCACAUGAUGGGGCCUUGUUUUGCAUGUUGAUGAAGAACUACACAAAGAAAACUAAUAUAGUUAAAAGUCAGCUUG | 19.7 |
| CAAUGUAGGAUUGCCCACAGUUUUUCUUUUUAAAGGUGGUUUUCGCCCUUCCUCUCCCACAUUAUUUCUUAAUCUGAACAUGAAGGCUCCAUUAGCAACACUAAAACUUG | 0.566 |
| CCAGAGAAACCGGCUUUUUUUCUUAUUGCGAGCAUGUUAAAACGUUGGGAACAUGUGGGGAAUUGUAUAUUGCGCUGAAUUAACUUCUCCCGCCUCUUGUAAUGCUCUGG | 3.57 |
| AUGGCACUGGACUGCCUCUAAGGACUGCUAAAAAGAAUAUUUUUUUGUGGUGUCAGAACUGGAAAAAGCACUUUCCCUUCGGGCAUUUCUGGAAAUGAUUAUUAAUCCAC | 0.47 |
| GGGUAGCCUGGGUGUAAAACCUGGAGAUGGUGGAUGAUCCCCACGCCACAGCCCUUUUGUCUCUGCAAACUGCCUUCUUCGGAAAGAAGAAGGUGGGAGGAUGUGAAUUG | 0.485 |
| GAUUCAUUUGUGUAACUCACUGAAGCCAAAAUACUAUCUUUUAAGAUGUCCCACAUGGAAGACGCUAUUCCAGGAUCUUUAAAUUUCCAUGGAUGCAUAUAGGAUGUUUG | 0.478 |
| GGUGUAUGCUUUGUUCUUUCCAUCUCAAGCAUUUAUCCAAAUUCUGCUCACAGACAUGAGGAAGCAGGCUGUAGAUUUAAGGGCACUCAAGGGGAAAACAAAUGUAGUUU | 0.609 |
| UCUGUAGAGUUCCCAGCCUCAGUAAUGUUCCAGGCUGCUUCUUGUUCCUUUUCUACCCUUUCUAGUUCAUUUUCCAAGGUAGCUGUGAUAAAGCAUGACAUAAAAGCCCA | 8.43 |
| CAAUGAAAGUCAAAUUUACUUUAAAAAGAAAUUAAUAUGGCUUCACCAAGAAGCAAAGUUCAACUUAUUUCAUAAUUGCCUACAUUUAUCAUGGUCCUGAAUGUAGCGUG | 0.896 |
| CGUAUAGCAAGUUUUUUGCUCAUCAGCAGAGAGCAACAGAUGUUUUAUUGAGUGAAGCCUUAAAAAGCACACACCACACACAGCUAACUGCCAAAAUACAUUGACCGUAG | 0.288 |

A few entries again (series 1):
| Change | relative binding score [%] |
| --- | --- |
| L29I | 34.7 |
| D3N | 23.6 |
| R24V | 4.56 |
| Y53H | 4.49 |
| T39M | 30.2 |
| T73G | -0.935 |
